Measurements pooled from the literature.
Each numbered part is a random draw from the data of one study; scales do not carry over between parts. Positions count from the first letter of the parent shown.

Sample 1
Target: RING finger protein unkempt homolog, zinc fingers 1-6, GST-SBP tag (UNK, Homo sapiens, UniProt Q9C0B0, residues 30-357)
UniProt Q9C0B0, sequence (30-357, looked up): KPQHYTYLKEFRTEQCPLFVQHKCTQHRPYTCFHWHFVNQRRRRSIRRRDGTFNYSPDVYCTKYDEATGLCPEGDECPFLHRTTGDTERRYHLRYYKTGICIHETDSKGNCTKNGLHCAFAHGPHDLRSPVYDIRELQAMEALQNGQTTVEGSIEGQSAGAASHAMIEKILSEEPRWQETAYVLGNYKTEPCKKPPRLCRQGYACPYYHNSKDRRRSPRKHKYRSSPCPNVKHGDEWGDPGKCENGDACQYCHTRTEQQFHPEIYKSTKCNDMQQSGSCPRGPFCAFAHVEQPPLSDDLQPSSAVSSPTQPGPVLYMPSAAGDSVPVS
Method: RNA Bind-n-Seq
Molecule type: RNA
Matrix: in vitro
Tested at: not given
Notes: RNA with constant flanks, human-mouse chimeric sites, ends assumed
Baseline: input RNA pool
Direction: higher = stronger binding
Shared flanks, not repeated: GGGAGUUCUACAGUCCGACGAUC … CAACAGAGGAUUGAGCAUCA
Sequence | bound/input enrichment [ratio]
AGAAUCUUGGGACUGUUUUACUUAAUUGGUCAUUGAUAGCUUAACAAACAUGGAGAUGAGAUUAGAAGUUUUGACAUCAACAGGUAUUAAGCAGAAAAAACCAUGGCCACGUGUCUCCUG | 0.23
GAUCAUGAACCACCAUCAGAAAUGAAGAUGAGAUUACCCAGACGAGCCCAAAACCGCAGCACUAGAAAAAGUAAACUUAACCUUGCAGAGUUCCUUAAUGAAGAUACAAGUUAAGAGAGC | 0.813
CGCUGGCCCAAGCUGAUGUAAAUGUUUGGCCUCCAUCAAGGUAUUAUGUGUGCCUUCUCUUAGUCCCUGUUUUCGGGAUGUUAUGAAUCUCAGUACUGUGGUUUGAAAGCACCAGCUUUG | 0.113
CAGCUGCAGACAGAAAAGGAUGAGAAGGAGCUGUAUAAGGUACAUUUGAAGAAUACAGAAAUAGAAAAUACGAAGCUUAUGUCAGAGAUACAGACUUUAAAGAAUUUAGAUGGGAACAAA | 1.24
UGUGAACUGUCUCUUGAGAUCUAAAAACAAGAUGACUUUUCCUGGCACAUAUUCCAAAGCAAAGACUUUGUUGCCUGCUGCUUCUUGUCUAAUUUACAGGGAUAUUUAAUUUUGUCAGGU | 0.232
CGCUUGGAUGAGGCUGGUGUCACAGAUGAAGUGCUAGAUUCUGCCAUGCAAGCCUUCCUUCUGGAGGUCAUUGUUAAACAUGGGGAGCCAGCCCCUUAUUUAUGUAACAAAGAUCCGUUU | 0.165
GACUUUGGGACUGGUCCUCGCAACGCAGCCUUCUAUAGCCCUCAUGGACAUAUAUUAGUGCUGGCUGGAUUUGGAAAUCUUCGAGGACAAAUGGAAGUGUGGGAUGUUAAAAACUACAAG | 0.313

Sample 2
Target: Histone acetyltransferase KAT6A, winged helix 1, GST fusion (KAT6A, Homo sapiens, UniProt Q92794, residues 1-85)
Method: protein binding microarray
Molecule type: double-stranded DNA, one strand shown
Matrix: in vitro
Tested at: not given
Notes: 8-mer, flanks averaged, mean of 2 arrays, mostly near background
Baseline: not given
Direction: higher = stronger binding
Construct (chain): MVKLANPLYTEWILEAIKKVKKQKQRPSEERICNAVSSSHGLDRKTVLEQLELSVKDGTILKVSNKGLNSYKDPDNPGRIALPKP
Sequence | E-score
AAAGGTTG | -0.133
TCCTTTCA | -0.128
CATGCCAC | -0.0459
ATTAATTA | 0.0146
GATCCTGA | 0.00971
ATGTTGTC | -0.0251
CTAATCAA | -0.123
CCCCAATA | -0.219
CACCAAGG | -0.0726
CAGTACGC | 0.174
CTGCGGCA | 0.308
ACCGAACA | -0.0749
TGCAAAAA | -0.2
CAGAGAAG | -0.111

Sample 3
Target: CCNA1, cyclin fold, Cln2 fusion (human)
Method: yeast growth competition, sequencing
Matrix: yeast
Notes: weak parent motif
Baseline: not given
Direction: higher = stronger binding
Starting sequence: MASTL docking peptide (human); PMIAKNLMCELDE
Change | normalised enrichment score
I3S | -0.219
K5D | 0.0553
D12W | -0.166
C9Y | -0.106
N6A | -0.222
N6L | 0.0462
C9I | -0.175
L7D | -0.0634
I3P | 0.14
C9L | -0.124
M2Q | 0.426
L11E | 0.131
N6H | 0.12
K5M | 0.00866
A4N | 0.213

Sample 4
Target: Interferon regulatory factor 3, full length, phosphomimetic (IRF3, Homo sapiens, UniProt Q14653, residues 1-427, S386D/S396D/S398D/S402D/T404D/S405D)
Method: protein-binding microarray
Molecule type: double-stranded DNA, one strand shown
Matrix: in vitro
Tested at: 2540 nM top
Notes: 60-bp whole probe
With: salmon DNA 0.4 mg/ml
Baseline: random background probes
Direction: higher = stronger binding
Shared flanks, not repeated: GCCTAGCAC … GTCTTGATTCGCTTGACGCTGCTG
Residues (chain): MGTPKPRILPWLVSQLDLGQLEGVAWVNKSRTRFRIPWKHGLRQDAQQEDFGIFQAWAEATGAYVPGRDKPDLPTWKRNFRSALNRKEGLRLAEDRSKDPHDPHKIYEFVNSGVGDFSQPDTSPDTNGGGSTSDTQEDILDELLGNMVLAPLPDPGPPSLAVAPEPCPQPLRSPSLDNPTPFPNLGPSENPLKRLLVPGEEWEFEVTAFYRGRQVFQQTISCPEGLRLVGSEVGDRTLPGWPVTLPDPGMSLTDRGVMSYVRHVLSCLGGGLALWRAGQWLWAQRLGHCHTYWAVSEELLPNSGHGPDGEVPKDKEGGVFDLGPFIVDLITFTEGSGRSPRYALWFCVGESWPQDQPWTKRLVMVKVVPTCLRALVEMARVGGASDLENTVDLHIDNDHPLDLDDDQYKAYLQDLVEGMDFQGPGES
Sequence | fitted relative affinity [z-score]
CTCTAACTCAAGATTCCTCTCGTGCTA | -0.0321
GACGAACTGGGACTGGGGACGTGCTAG | -0.659
AATCATTTTCGTTTTTATTAGTGCTAG | 6.43
GTCGATTTCAGACTGGAGACGTGCTAG | 1.97
TTAGGTCTCCTACTGTTTTAGTGCTAG | 0.716
TTAGGTATCGGGTGTCGGTTAGTGCTA | 1.04
TTTTTTTCCTAATTGAACCCGTGCTAG | 3.86
GACGATCTCAGACTGGGGACGTGCTAG | 0.109
GACGGTTCCTTTTTCCTGACGTGCTAG | 6.29
TTATGACTGCTACTGCTTTAGTGCTAG | -0.496
CAGAAGTTCATGTTCAACCAGTGCTAG | -0.0955
GACGGACTGGGATATCGGGACGTGCTA | -0.696
GACGGTTTCCATTTCCTGACGTGCTAG | 8.33
AACTTTTTTTAATTGAGAAGGTGCTAG | 0.805
TTAGGTTCCCCTTTCCTTTAGTGCTAG | 5.29
GACGGTATCCTACTGGTGACGTGCTAG | 2.67
GCCGAACTGGGGTATCGAGACGTGCTA | 0.629
TTAAGTATCGGGTTTCGGTTAGTGCTA | 4.25

Sample 5
Target: Sal-like protein 4, full length isoform B (SALL4, Homo sapiens, UniProt Q9UJQ4-2, residues 1-616)
Method: universal PBM
Molecule type: double-stranded DNA, one strand shown
Matrix: in vitro
Tested at: not given
Notes: 8-mer, flanks averaged, mean of replicates
Direction: higher = stronger binding
Sequence | E-score
ATCGACGC | -0.032
CCTGATCA | 0.0574
AAAGTCGC | 0.0869
CGCATAGA | -0.109
CGCCTGGA | -0.252
GAATTTAC | 0.244
CACCCTGG | -0.342
ATCAGGTG | -0.0769
ACCCTGAG | -0.309
GCTTCTAC | 0.0665
GGGATCTA | -0.124
CCCCCCTC | -0.28
ATGGGTAG | 0.0776
GGAAAACC | -0.152
CAGTACTA | 0.0688
CAGAAGCA | 0.0776
GCACTTCA | 0.0525
CCATTTAC | 0.00119
CACGACAC | -0.0342
CCTCTGGC | -0.136
CCCGCGCC | -0.289
CAATGTGA | 0.234
CGCACGCA | -0.198
CTGCCGAC | -0.225
AGGTTTCC | -0.113

Sample 6
Target: RNA binding protein fox-1 homolog 2, RRM domain, GST-SBP tag (RBFOX2, Homo sapiens, UniProt O43251-10, residues 100-194)
Method: RNA Bind-n-Seq
Molecule type: RNA
Matrix: in vitro
Tested at: 365 nM
Notes: natural RNA segment, single round, ends assumed
Baseline: no-protein control
Direction: higher = stronger binding
Shared flanks, not repeated: GGGAGUUCUACAGUCCGACGAUC … UGGAAUUCUCGGGUGCCAA
Construct (chain): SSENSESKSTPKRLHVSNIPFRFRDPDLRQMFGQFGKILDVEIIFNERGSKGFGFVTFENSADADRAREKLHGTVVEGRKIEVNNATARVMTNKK
Sequence | RBNS enrichment (R)
UCUGUACGUGCAACUGGGAAACUUUUGUCCUUUGAGGCUAGGCAGCUCCCUGCCCUCCGUGUGUGUCUGUUAUCUGGGGGAGAGGAGUGUGGAAGGGUUGGGGGAAGAGC | 2.37
UUUUCUUCAGUUGGUGUGUUUUUGGGAUGUCUUAUUUUUAGAUGGUUACACUGUUAGAACACUAUUUUCAGAAUCUGAAUGUAAUUUGUGUAAUAAAGUGUUUUCAGAGC | 0.752
UUGUUGGGACGAGACCAACUGUGCUGUUGCUAUGGGACCUGGAGGAGGGUUAGGCAUGGGUGACACCCCAGAAGGGAACUUUCAUCUUUUCCCUUCCAAAAAUUGUCAAC | 0.842
GUGAGUGUCUUACCCCUUUCCUAUACUUUCUUGUUAUCCAUAUCAUUCUUUUGUGAGUUUUGCAGCAGUCUUGAAUAAUACAGAUUAUAACUACUGAAAGGGGAACCUUC | 0.385
AAAUGUGAUGUAUUUAAAGAAGGUCCUUUACCUAGGAGCGAAUGAACAAUAGCUGAAUGUCUUGGUAUUUAAAGUGUAAAUUAUCUAUGGCUUUGCCAAAUGAAGGGAGG | 1.11
GGAUACAGGAGGUGGCUUCUUCAGGUUCCAUAUCCCCAAUGGUGUGAAUCACAGCUAAGAUCACCUCCACUGAUUCUUGGGCACCUCCCUUAAGACUGUUUUUAAAUGAA | 0.655
CCUGAUGGUAGGUCGUGGGGCCUGGUGAUUUCAAACAAAGCCAUCGCCUGCGUUCUUUCUCCUUCUGGUGCUACAGCUCUGAGGGCCUUCACCUUUCUGUCUGAAAUACA | 0.294
CACUAUUGGUAAUAAAAUAACAAAUGUUUGUGCAUUUUUAUGUGAAGAUCCUUCUCGUAUUUCAUUUGGAAAGAUGAGCAAGAGGUCUGCUUCCUUCAUUUUACUUCCCC | 0.504
GUUUGCAUUGUUGAUGACAGGUUCACAAUAAAGUGACGUUCUGGUGGAGGUAGAGUGAAAUGUUUUUUAAUUCAGUUUUCUCAUUUGAUACUUUUAAUUUACAAAGUAAU | 0.637
GACCAGGUCCUGAAUGCCCUGAAGCAUCACUUCCCAGCAGAGUCCAGAACAGUAAGUACCACUGGACCCCGAAGCUGUGAGUGCUAUCUUGGGCAGACCAAACUCAGGCC | 0.346
GGUACAGCCUUUUUUUAAAAUAAAUUAAUCUAUAUUGGUUGACAAACAAGCCACCAACCACUGACUGCAAAACUGCCUGAUGCAGUUGGGUUCCUCCUGGUUUUCUUUUG | 0.472
GUCUGUCAUUGACCUCAUUGUGUCAGCACCUUCCCCUCAAGGAGGCUGACCCUGCCCUGCCAGCUGAGACUGGGAGACGGAGUGGGCUCUGAUCCCAGGGCUUCCAGGAA | 0.297

Some of these lines once more (sample 3):
Change | normalised enrichment score
N6L | 0.0462
C9I | -0.175
L7D | -0.0634
I3P | 0.14
C9L | -0.124
M2Q | 0.426
L11E | 0.131
N6H | 0.12
K5M | 0.00866
